Experimental data pooled from the literature.
Parts stem from different laboratories: compare values within a part only. Values joined by “and” are separate records of one study, mostly repeats; a detail may differ.
Sequence of UniProt Q16644 (whole entry, looked up): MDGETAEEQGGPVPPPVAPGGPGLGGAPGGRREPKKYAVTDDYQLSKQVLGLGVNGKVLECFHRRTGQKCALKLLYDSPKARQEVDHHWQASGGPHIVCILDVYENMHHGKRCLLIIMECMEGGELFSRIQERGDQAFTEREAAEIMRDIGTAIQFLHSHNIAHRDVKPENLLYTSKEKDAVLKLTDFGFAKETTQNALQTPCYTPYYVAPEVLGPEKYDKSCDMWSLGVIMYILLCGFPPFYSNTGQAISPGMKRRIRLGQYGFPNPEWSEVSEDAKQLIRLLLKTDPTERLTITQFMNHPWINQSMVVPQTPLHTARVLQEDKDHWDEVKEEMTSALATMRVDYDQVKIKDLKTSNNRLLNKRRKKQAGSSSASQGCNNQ
Sequence of UniProt Q9BYP7 (whole entry, looked up): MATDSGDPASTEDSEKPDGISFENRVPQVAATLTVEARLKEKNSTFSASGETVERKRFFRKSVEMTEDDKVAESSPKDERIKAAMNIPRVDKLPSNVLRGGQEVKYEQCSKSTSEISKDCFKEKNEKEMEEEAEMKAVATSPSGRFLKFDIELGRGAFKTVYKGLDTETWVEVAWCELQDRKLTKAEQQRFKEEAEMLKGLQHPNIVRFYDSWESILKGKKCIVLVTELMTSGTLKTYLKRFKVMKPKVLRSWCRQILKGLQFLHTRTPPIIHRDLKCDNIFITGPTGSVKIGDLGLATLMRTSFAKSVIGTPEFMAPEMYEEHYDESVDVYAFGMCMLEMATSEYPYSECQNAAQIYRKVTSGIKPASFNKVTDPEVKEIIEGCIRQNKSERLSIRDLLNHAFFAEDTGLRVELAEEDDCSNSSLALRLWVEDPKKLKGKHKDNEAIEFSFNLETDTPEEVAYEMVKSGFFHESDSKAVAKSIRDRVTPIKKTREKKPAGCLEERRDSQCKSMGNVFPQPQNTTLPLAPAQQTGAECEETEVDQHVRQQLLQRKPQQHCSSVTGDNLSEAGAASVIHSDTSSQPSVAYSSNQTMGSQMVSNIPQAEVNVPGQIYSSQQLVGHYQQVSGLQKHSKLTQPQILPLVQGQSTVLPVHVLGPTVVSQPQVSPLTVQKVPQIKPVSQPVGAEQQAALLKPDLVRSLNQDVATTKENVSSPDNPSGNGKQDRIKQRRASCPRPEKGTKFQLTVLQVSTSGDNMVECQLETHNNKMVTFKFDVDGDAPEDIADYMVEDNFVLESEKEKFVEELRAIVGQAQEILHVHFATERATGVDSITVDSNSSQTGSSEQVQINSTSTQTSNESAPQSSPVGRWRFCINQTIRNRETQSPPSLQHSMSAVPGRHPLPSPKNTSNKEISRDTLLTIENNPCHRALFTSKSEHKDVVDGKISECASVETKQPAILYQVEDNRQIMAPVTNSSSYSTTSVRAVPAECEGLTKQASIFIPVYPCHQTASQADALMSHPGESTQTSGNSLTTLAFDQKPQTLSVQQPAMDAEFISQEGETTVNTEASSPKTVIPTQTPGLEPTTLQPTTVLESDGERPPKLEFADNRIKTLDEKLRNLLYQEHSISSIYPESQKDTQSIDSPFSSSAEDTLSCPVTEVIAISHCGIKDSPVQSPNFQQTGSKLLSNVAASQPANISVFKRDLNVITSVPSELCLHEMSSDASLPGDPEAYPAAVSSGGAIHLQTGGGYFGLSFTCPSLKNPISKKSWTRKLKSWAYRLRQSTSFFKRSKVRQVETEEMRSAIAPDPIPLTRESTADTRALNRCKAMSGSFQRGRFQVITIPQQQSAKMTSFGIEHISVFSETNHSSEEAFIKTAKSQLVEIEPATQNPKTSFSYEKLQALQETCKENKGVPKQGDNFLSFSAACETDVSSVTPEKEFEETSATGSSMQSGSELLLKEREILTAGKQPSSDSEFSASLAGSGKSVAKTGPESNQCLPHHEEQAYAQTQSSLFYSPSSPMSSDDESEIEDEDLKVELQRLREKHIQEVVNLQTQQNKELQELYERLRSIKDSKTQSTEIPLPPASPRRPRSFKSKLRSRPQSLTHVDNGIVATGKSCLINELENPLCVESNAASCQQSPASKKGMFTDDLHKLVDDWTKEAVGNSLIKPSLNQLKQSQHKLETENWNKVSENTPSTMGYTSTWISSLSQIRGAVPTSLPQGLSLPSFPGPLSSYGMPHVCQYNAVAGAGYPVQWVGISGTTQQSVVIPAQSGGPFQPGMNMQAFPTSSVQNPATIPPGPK
Sequence of UniProt Q13554 (whole entry, looked up): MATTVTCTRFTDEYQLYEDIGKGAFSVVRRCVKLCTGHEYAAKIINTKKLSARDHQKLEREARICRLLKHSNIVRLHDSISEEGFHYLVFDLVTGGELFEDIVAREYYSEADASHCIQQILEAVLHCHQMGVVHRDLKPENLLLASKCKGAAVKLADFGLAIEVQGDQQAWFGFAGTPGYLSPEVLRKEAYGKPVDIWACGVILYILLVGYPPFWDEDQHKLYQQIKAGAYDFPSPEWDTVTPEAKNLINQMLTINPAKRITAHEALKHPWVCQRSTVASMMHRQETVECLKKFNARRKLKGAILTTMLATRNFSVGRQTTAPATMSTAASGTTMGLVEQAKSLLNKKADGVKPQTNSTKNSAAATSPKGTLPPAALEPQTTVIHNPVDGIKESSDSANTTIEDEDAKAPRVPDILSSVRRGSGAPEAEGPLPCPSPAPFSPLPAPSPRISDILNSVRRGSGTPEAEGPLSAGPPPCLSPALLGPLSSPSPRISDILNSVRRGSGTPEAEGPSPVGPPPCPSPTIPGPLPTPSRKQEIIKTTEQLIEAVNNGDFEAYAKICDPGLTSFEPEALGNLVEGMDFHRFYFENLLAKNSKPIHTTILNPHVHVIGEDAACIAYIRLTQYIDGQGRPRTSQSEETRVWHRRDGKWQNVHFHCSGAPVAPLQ
Sequence of UniProt Q96PF2 (whole entry, looked up): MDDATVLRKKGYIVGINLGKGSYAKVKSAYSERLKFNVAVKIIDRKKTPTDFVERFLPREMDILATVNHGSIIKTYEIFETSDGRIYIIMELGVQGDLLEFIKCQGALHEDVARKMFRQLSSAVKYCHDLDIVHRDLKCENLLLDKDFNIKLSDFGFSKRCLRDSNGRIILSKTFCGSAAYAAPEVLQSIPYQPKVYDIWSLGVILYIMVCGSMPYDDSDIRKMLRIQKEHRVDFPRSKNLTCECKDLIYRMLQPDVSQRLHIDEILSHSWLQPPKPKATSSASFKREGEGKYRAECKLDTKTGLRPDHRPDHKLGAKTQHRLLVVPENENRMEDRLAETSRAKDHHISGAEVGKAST
Sequence of UniProt P06493 (whole entry, looked up): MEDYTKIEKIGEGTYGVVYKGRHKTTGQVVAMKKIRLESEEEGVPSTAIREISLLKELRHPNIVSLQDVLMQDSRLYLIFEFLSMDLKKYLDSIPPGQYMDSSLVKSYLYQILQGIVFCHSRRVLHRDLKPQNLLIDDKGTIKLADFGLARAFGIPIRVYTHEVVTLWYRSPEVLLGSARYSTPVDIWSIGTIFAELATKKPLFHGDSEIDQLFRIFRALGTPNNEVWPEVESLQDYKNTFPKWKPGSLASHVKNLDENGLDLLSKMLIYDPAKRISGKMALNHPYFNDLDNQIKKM
Sequence of UniProt Q9UEE5 (whole entry, looked up): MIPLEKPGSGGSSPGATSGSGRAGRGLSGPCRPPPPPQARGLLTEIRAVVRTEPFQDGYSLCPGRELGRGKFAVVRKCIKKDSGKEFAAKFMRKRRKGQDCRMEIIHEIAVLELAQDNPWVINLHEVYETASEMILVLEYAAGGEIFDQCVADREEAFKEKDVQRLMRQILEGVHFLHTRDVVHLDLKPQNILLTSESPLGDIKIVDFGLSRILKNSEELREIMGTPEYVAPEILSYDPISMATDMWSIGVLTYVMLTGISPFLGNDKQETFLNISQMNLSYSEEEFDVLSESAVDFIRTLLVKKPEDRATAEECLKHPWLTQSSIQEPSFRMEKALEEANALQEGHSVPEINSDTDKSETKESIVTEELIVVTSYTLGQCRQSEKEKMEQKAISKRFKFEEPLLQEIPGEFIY
Sequence of UniProt O75716 (whole entry, looked up): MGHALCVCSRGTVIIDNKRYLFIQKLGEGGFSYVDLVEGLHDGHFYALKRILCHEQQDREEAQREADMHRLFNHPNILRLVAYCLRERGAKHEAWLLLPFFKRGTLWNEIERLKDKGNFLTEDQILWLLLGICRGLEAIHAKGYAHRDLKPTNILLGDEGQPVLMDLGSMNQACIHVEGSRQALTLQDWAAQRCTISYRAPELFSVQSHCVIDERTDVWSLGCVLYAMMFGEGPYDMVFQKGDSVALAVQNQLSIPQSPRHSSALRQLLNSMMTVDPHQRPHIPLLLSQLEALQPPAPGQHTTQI
Sequence of UniProt O43781 (whole entry, looked up): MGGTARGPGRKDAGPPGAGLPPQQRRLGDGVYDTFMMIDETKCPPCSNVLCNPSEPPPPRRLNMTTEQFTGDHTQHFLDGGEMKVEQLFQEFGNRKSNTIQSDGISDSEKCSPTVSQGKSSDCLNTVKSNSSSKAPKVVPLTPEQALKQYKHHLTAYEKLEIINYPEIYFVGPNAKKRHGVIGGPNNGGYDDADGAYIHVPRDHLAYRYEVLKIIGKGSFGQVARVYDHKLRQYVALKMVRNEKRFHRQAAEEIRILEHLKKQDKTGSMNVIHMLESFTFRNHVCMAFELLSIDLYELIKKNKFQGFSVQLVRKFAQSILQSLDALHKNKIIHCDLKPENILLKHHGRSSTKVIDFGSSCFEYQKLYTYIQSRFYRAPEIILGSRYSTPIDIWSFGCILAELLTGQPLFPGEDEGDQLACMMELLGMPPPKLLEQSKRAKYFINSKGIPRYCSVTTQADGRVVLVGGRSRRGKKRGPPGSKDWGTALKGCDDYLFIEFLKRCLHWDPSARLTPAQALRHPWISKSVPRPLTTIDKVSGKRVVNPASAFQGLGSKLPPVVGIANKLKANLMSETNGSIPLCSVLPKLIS

Block 1
SMILES: CC(C)N(CCC(=O)c1ccc2ccccc2c1)Cc1ccccc1
Effect on: enzyme activity
Mode: inhibitor
Tested at: 0.5 µM
Reference: control
| target | remaining activity |
| --- | --- |
| HIPK4 (Homo sapiens, UniProt Q8NE63) | 107% |
| EPHB1 (Homo sapiens, UniProt P54762) | 96.8% |
| Cyclin-dependent kinase 1, with cyclin B (CDK1, Homo sapiens, UniProt P06493) | 104% |
| MAP4K4 (Homo sapiens, UniProt O95819) | 96.7% |
| RPS6KA6 (Homo sapiens, UniProt Q9UK32) | 97.4% |
| PHKG1 (Homo sapiens, UniProt Q16816) | 91.6% |
| Cyclin-dependent kinase 6, with cyclin D3 (CDK6, Homo sapiens, UniProt Q00534) | 102% |
| SRMS (Homo sapiens, UniProt Q9H3Y6) | 103% |
| HIPK2 (Homo sapiens, UniProt Q9H2X6) | 107% |
| WNK3 (Homo sapiens, UniProt Q9BYP7) | 97% |
| TSSK2 (Homo sapiens, UniProt Q96PF2) | 100% |
| RPS6KA5 (Homo sapiens, UniProt O75582) | 102% |
| AXL (Homo sapiens, UniProt P30530) | 108% |
| STK17A (Homo sapiens, UniProt Q9UEE5) | 104% |
| STK16 (Homo sapiens, UniProt O75716) | 91.6% |
| CAMK2B (Homo sapiens, UniProt Q13554) | 96.6% |
| EPHA4 (Homo sapiens, UniProt P54764) | 94.5% |
| MAPKAPK3 (Homo sapiens, UniProt Q16644) | 95.7% |
| PRKACG (Homo sapiens, UniProt P22612) | 107% |
| BLK (Homo sapiens, UniProt P51451) | 106% |
| EPHB4 (Homo sapiens, UniProt P54760) | 102% |
| DYRK3 (Homo sapiens, UniProt O43781) | 107% |
| Cyclin-dependent kinase 4, with cyclin D3 (CDK4, Homo sapiens, UniProt P11802) | 92.4% |

Block 2
SMILES: CC(C)(C(=O)O)[C@H](NC(=O)Cc1cccc(I)c1)c1ccc2oc(=O)[nH]c2c1
Method: Incucyte 3D growth
Tested at: 30 µM
Reading: higher = more growth
| cell line | setting | spheroid area |
| --- | --- | --- |
| A375 | 456.52 h | 1.42e+08 a.u. and 1.57e+08 a.u. and 1.7e+08 a.u. and 1.55e+08 a.u. and 1.64e+08 a.u. and 1.79e+08 a.u. |
| NCI-H1437 | 216 h | 5.76e+07 a.u. and 6.15e+07 a.u. and 7.87e+07 a.u. and 7.81e+07 a.u. and 8.6e+07 a.u. and 3.6e+07 a.u. |
| PC-9 | 138 h | 1.03e+09 a.u. and 1.07e+09 a.u. and 1.06e+09 a.u. and 1e+09 a.u. and 1.09e+09 a.u. |
| A375 | 120 h | 7.29e+07 a.u. and 6.11e+07 a.u. and 6.8e+07 a.u. and 8.22e+07 a.u. and 7.89e+07 a.u. and 6.73e+07 a.u. |
| A375 | 42.52 h | 2.56e+07 a.u. and 1.92e+07 a.u. and 2.2e+07 a.u. and 2e+07 a.u. and 1.97e+07 a.u. |
| NCI-H358 | 72 h | 3.93e+06 a.u. and 4.21e+06 a.u. and 3.35e+06 a.u. and 3.28e+06 a.u. and 3.27e+06 a.u. and 3.97e+06 a.u. |
| MEL-JUSO | 288.52 h | 2.56e+07 a.u. and 2.24e+07 a.u. and 1.98e+07 a.u. and 2.33e+07 a.u. and 4.06e+07 a.u. and 2.29e+07 a.u. |

Block 3
SMILES: COc1cccc(NC(=O)c2nc3scc(CN(C)Cc4ccccc4)c3c(=O)[nH]2)c1
Tested at: 1 µM
Reference: DMSO
| cell line | setting | viability [%] |
| --- | --- | --- |
| sample I colorectal tumour organoid | replicate 1 | 189 |
| sample C colorectal tumour organoid | replicate 2 | 90.7 |
| sample I colorectal tumour organoid | replicate 2 | 103 |
| colorectal tumour organoids |  | 107 |
| sample BA colorectal tumour organoid |  | 84.9 |
| sample B colorectal tumour organoid | replicate 1 | 110 |
| sample C colorectal tumour organoid | replicate 1 | 88 |
| sample B colorectal tumour organoid | replicate 2 | 109 |

Block 4
Cell line: mouse MPNST tumor cells
Method: high-content immunofluorescence imaging
Refers to: nuclear SOX9
Tested at: 10 µM
Time: 12 h
Setting: mean of 2 replicates
Reference: DMSO control
Reading: higher = more nuclear SOX9
| SMILES | nuclear SOX9 intensity |
| --- | --- |
| CC1(C)S[C@@H]2[C@H](NC(=O)Cc3ccccc3)C(=O)N2[C@H]1C(=O)O | 98 % of DMSO |
| NCCNC(=O)c1ccc(Cl)cn1 | 99.4 % of DMSO |
| COc1cc(OC)c(C(=O)CCCCN2CCC3(CC2)NC(=O)NC3=O)cc1NS(=O)(=O)c1ccc(C(F)(F)F)cc1 | 107 % of DMSO |
| C[C@@H]1C[C@H]2[C@@H]3CCC4=CC(=O)C=C[C@]4(C)[C@@]3(F)[C@@H](O)C[C@]2(C)[C@@]1(O)C(=O)CO | 72.4 % of DMSO |
| CC(C)OC(=O)C(C)(C)Oc1ccc(C(=O)c2ccc(Cl)cc2)cc1 | 112 % of DMSO and 121 % of DMSO |
| O=C(NC1CC1)c1cc(-c2cccs2)on1 | 124 % of DMSO |
| CN[C@H]1CC[C@@H](c2ccc(Cl)c(Cl)c2)c2ccccc21 | 147 % of DMSO |
| C=C(NC(=O)C(=C)NC(=O)c1csc(C2=N[C@@H]3c4csc(n4)[C@H]4NC(=O)c5csc(n5)[C@H]([C@](C)(O)[C@@H](C)O)NC(=O)[C@H]5CSC(=N5)/C(=C/C)NC(=O)[C@H]([C@@H](C)O)NC(=O)c5csc(n5)[C@]3(CC2)NC(=O)[C@H](C)NC(=O)C(=C)NC(=O)[C@H](C)NC(=O)[C@H]([C@@H](C)CC)N[C@@H]2C=Cc3c([C@H](C)O)cc(nc3[C@H]2O)C(=O)O[C@@H]4C)n1)C(N)=O | 147 % of DMSO |
| CCCCC1(COC(=O)CCC(=O)O)C(=O)N(c2ccccc2)N(c2ccccc2)C1=O | 105 % of DMSO |

Excerpt of the above (block 4):
| SMILES | nuclear SOX9 intensity |
| --- | --- |
| CN[C@H]1CC[C@@H](c2ccc(Cl)c(Cl)c2)c2ccccc21 | 147 % of DMSO |
| C=C(NC(=O)C(=C)NC(=O)c1csc(C2=N[C@@H]3c4csc(n4)[C@H]4NC(=O)c5csc(n5)[C@H]([C@](C)(O)[C@@H](C)O)NC(=O)[C@H]5CSC(=N5)/C(=C/C)NC(=O)[C@H]([C@@H](C)O)NC(=O)c5csc(n5)[C@]3(CC2)NC(=O)[C@H](C)NC(=O)C(=C)NC(=O)[C@H](C)NC(=O)[C@H]([C@@H](C)CC)N[C@@H]2C=Cc3c([C@H](C)O)cc(nc3[C@H]2O)C(=O)O[C@@H]4C)n1)C(N)=O | 147 % of DMSO |
| CCCCC1(COC(=O)CCC(=O)O)C(=O)N(c2ccccc2)N(c2ccccc2)C1=O | 105 % of DMSO |
